Results gathered from unrelated publications.
Protocols differ between the studies behind these lines. “And” joins repeats or separate records; there may be more than shown.
Target: Homeodomain-interacting protein kinase 3 (HIPK3, Homo sapiens, UniProt Q9H422)

Nc1ncc2c(n1)-c1c([nH]c3ccc(C4=CCOCC4)cc13)CCC2
remaining binding (binding, competition with immobilised ligand; 1 µM): 50%

COc1cc(Nc2nccc(-c3cnn4nc(OC)ccc34)n2)cc(C(F)(F)F)c1
remaining binding (binding, competition with immobilised ligand; 1 µM): 69%

NC(=O)C[C@H]1CCc2sc3ncnc(O[C@H]4CC[C@H](N5CCOCC5)CC4)c3c21
inhibition (enzyme activity, inhibitor; 10 µM): 1%

CNC(=O)C[C@H](Cc1ccc(C#N)cc1)NC(=O)c1cc(-c2ccc(CN[C@H](C)c3ccc(C)cc3)o2)ccc1Cl
activity vs control (enzyme activity, inhibitor; 1 µM): 96%

C=CC(=O)N1CCCC(n2c(=O)c3ncccc3n(Cc3ccc(Oc4ccccc4)cc3)c2=O)C1 (centres unmarked)
remaining binding (cell-free assay, competition with immobilised ligand; 1 µM): 97%

C=CC(=O)Nc1cccc(-c2cnc3[nH]cc(C(=O)NC(C)(C)C)c3n2)c1
inhibition (kinase activity; 0.1 µM): 44% and 50%

COCC12C(=O)NC3C4(C(OC)CC1O)C1CC5(O)C(OC)C(O)C(OC(C)=O)(C1C5OC(=O)c1ccccc1)C3(O)C(OC)C24 (centres unmarked)
remaining activity (kinase activity, inhibitor, ProQinase kinase profiling; 25 µM; relative to: control): 97% and 94%

Cc1cnc2nc1Nc1cccc(c1)COC/C=C/COCc1cc(ccc1OCCN1CCOCC1)N2
remaining binding (binding; 0.1 µM): 87%

CCn1cc(C(=O)O)c(=O)c2c(N)c(F)c(NC3CCCCC3)cc21
inhibition (kinase activity; 0.1 µM, together with: ATP at Km): 14.7%

O=C(Cc1ccc(OCc2ccccc2)cc1)NC1(C(=O)O)CCN(C(=O)c2ccc(-c3cccc(Cl)c3)cc2)CC1
activity vs control (enzyme activity, inhibitor; 10 µM): 101%

CNC1C[S+]2CC[S+]3CC[S+](C1)[Ru-4]321([N]=C=S)[n]2c3ccc(OC)cc3c3c4c(c5cc(F)c[n+]1c5c32)C(=O)NC4=O (centres unmarked)
remaining binding (KinomeScan; 0.1 µM; relative to: untreated): 95%

Cc1ccc(-c2c(/C=C(\C#N)C(=O)NC(C)C)n(CCCO)c3ncnc(N)c23)cc1
remaining binding (cell-free assay, competition with immobilised ligand; 1 µM): 100%

Cc1cccc(O[C@H]2CCC[C@@H](C(C)CNCc3ccncc3)C2)c1 (relative stereo)
inhibition (enzyme activity, inhibitor; 10 µM): -7%

COc1c(Cl)cccc1Nc1c(-c2ccncc2C#C[C@@]2(C)CCCN2C(=O)/C=C/CN(C)C)[nH]c2c1C(=O)NCC2
remaining binding (binding, competition with immobilised ligand; 3 µM): 90%

For quick reference, copied from above:
NC(=O)C[C@H]1CCc2sc3ncnc(O[C@H]4CC[C@H](N5CCOCC5)CC4)c3c21
inhibition (enzyme activity, inhibitor; 10 µM): 1%

Cc1ccc(-c2c(/C=C(\C#N)C(=O)NC(C)C)n(CCCO)c3ncnc(N)c23)cc1
remaining binding (cell-free assay, competition with immobilised ligand; 1 µM): 100%
